Assay results gathered from unrelated publications.
Compare with care: the assays were run in different laboratories.
Organism: Klebsiella pneumoniae

With `CCn1c(-c2ccc(OC)cc2)c(-c2ccc(OC)cc2)n(CC)c1=[Se]` the MIC was greater than 40 µM (broth microdilution; carbapenem-resistant BAA-1705; 24 h).
For `CC(=O)N[C@H](Cc1ccc(F)cc1)C(=O)N[C@@H](CCN)C(=O)N[C@H](C(=O)N[C@@H](CCN)C(=O)N[C@H]1CCNC(=O)[C@H]([C@@H](C)O)NC(=O)[C@H](CCN)NC(=O)[C@H](CCN)NC(=O)[C@H](CC(C)C)NC(=O)[C@@H](Cc2ccccc2)NC(=O)[C@H](CCN)NC1=O)[C@@H](C)O`, the MIC was greater than 64 mg/L (broth microdilution; ATCC 13883, colistin-susceptible).
With `N=C(N)NCCC[C@@H]1NC(=O)[C@H](CCCNC(=N)N)NC(=O)[C@@H](CCCNC(=N)N)NC(=O)[C@@H](CCCNC(=N)N)NC(=O)[C@@H](C(c2ccccc2)c2ccccc2)NC(=O)[C@H](Cc2c[nH]c3ccccc23)NC(=O)[C@@H](C(c2ccccc2)c2ccccc2)NC1=O` the MIC was greater than 64 mg/L (ATCC BAA1705, KPC-2 carbapenem-resistant).
`COc1ccc2ccc(O)c(/C=N/[C@H]3CCCC[C@H]3/N=C/c3cc(C(C)(C)C)cc(C(C)(C)C)c3O)c2c1` has an MIC of greater than 40 µM (bacterial growth, broth microdilution; carbapenem-resistant).
`C#CCO/N=C(\C(=O)N[C@@H]1C(=O)N(OS(=O)(=O)O)C1(C)C)c1nsc(N)n1` has an MIC of 32 mg/L (agar dilution; 09-20, NDM-1).
The MIC of `CC[C@H](C)[C@H](NC(=O)[C@@H](CCCNC(=N)N)NC(=O)[C@H](CCCNC(=N)N)NC(=O)[C@@H]1CCCN1C(=O)[C@@H]1CCCN1C(=O)[C@H](Cc1c[nH]cn1)NC(=O)[C@@H]1CCCN1C(=O)[C@H](CCCNC(=N)N)NC(=O)[C@@H]1CCCN1C(=O)[C@H](CC(C)C)NC(=O)[C@H](Cc1ccc(O)cc1)NC(=O)[C@@H]1CCCN1C(=O)[C@@H]1CCCN1C(=O)[C@H](CCCCN)NC(=O)[C@H](CC(=O)O)NC(=O)[C@@H](N)C(C)C)C(=O)N[C@@H](Cc1ccc(O)cc1)C(=O)N[C@@H](CC(N)=O)C(=O)N[C@H](CCCNC(=N)N)C(N)=O` is reported as 8 mg/L (broth microdilution; DSM 681; 18 h, 37 °C, 25% MHB2).
With `CC1(C)[C@H](NC(=O)/C(=N\OCCN)c2csc(N)n2)C(=O)N1OS(=O)(=O)O` the MIC was 8 mg/L (agar dilution; 09-20, NDM-1).
With `COc1ccc(/C=N/[C@@H]2CCCC[C@@H]2/N=C/c2c(O)ccc3ccc(OC)cc23)c(O)c1` the MIC was greater than 40 µM (bacterial growth, broth microdilution; carbapenem-resistant).
For `CC[C@H](C)[C@H](NC(=O)[C@@H](CCCNC(=N)N)NC(=O)[C@H](CCCNC(=N)N)NC(=O)[C@@H]1CCCN1C(=O)[C@@H]1CCCN1C(=O)[C@H](CCCNC(=N)N)NC(=O)[C@@H]1CCCN1C(=O)[C@H](CCCNC(=N)N)NC(=O)[C@@H]1CCCN1C(=O)[C@H](Cc1ccccc1)NC(=O)[C@H](Cc1ccc(O)cc1)NC(=O)[C@@H]1CCCN1C(=O)[C@@H]1CCCN1C(=O)[C@H](CCCCN)NC(=O)[C@H](CC(=O)O)NC(=O)[C@@H](N)C(C)C)C(=O)N[C@@H](Cc1ccc(O)cc1)C(=O)N[C@@H](CC(N)=O)C(=O)N[C@H](CCCNC(=N)N)C(N)=O`, the MIC was greater than 128 mg/L (broth microdilution; DSM 681; 18 h, 37 °C, 25% MHB2).
`CC[C@H](C)[C@H](NC(=O)CN)C(=O)NCC(=O)N[C@@H](C)C(=O)N[C@H](C(=O)N[C@@H](CC(C)C)C(=O)N[C@@H](CCCCN)C(=O)N[C@H](C(=O)N[C@@H](CC(C)C)C(=O)N[C@H](C(=O)N[C@H](C(=O)NCC(=O)N[C@@H](CC(C)C)C(=O)N1CCC[C@H]1C(=O)N[C@@H](C)C(=O)N[C@@H](CC(C)C)C(=O)N[C@H](C(=O)N[C@@H](CO)C(=O)N[C@@H](Cc1c[nH]c2ccccc12)C(=O)N[C@H](C(=O)N[C@@H](CCCCN)C(=O)N[C@@H](CCCNC(=N)N)C(=O)N[C@@H](CCCCN)C(=O)N[C@@H](CCCNC(=N)N)C(=O)N[C@@H](CCC(N)=O)C(=O)N[C@@H](CCC(N)=O)C(N)=O)[C@@H](C)CC)[C@@H](C)CC)[C@@H](C)O)[C@@H](C)O)C(C)C)C(C)C` gave an MIC of 2 µM (CLSI broth microdilution; ATCC 13883; 18 h, 37 °C).
